Measured values of several laboratories.
Numbered parts are unrelated; each lists some results of a single study.

Sample 1 — method: protein binding microarray; molecule type: double-stranded DNA, one strand shown; matrix: in vitro; concentration: not given; relative to: not given; direction: higher = stronger binding
Target: Histone acetyltransferase KAT6A, winged helix 1, GST fusion (KAT6A, Homo sapiens, UniProt Q92794, residues 1-85)
Setting: 8-mer, flanks averaged, mean of 2 arrays, mostly near background
Residues (chain): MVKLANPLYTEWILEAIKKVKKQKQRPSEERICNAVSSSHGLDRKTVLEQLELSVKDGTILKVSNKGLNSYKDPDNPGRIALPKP
`AAAACACG` has an E-score of 0.136.
With `CATTATTC` the E-score was -0.155.
`ATCCAGCA` gave an E-score of -0.202.

Sample 2 — method: aptamer microarray, sandwich; molecule type: DNA with 2'F-ANA; matrix: in vitro; concentration: 200 nM; together with: Cy3 exosite-II aptamer, 400 nM; direction: higher = stronger binding; oligonucleotide: GGTTGGTGTGGTTGG
Target: Prothrombin, mature alpha-thrombin (F2, Homo sapiens, UniProt P00734)
Setting: whole 15-mer aptamer, many near background
Under “mean fluorescence intensity”, `2'F-ANA at 2 6 7 8 9 10 11 12 14 15` is recorded as 102 a.u.
`2'F-ANA at 2 5 6 7 10 14` — result for “mean fluorescence intensity”: 47 a.u.
`2'F-ANA at 1 5 6 7 9 11 13 14` — result for “mean fluorescence intensity”: 50.5 a.u.
`2'F-ANA at 1 4 6 7 9 12 13 15` — result for “mean fluorescence intensity”: 140 a.u.
Under “mean fluorescence intensity”, `2'F-ANA at 2 3 4 5 6 7 8 12 13 15` is recorded as 117 a.u.

Sample 3 — method: universal PBM; molecule type: double-stranded DNA, one strand shown; matrix: in vitro; concentration: not given; direction: higher = stronger binding
Target: Sal-like protein 4, full length isoform B (SALL4, Homo sapiens, UniProt Q9UJQ4-2, residues 1-616)
Setting: 8-mer, flanks averaged, mean of replicates
Construct (chain): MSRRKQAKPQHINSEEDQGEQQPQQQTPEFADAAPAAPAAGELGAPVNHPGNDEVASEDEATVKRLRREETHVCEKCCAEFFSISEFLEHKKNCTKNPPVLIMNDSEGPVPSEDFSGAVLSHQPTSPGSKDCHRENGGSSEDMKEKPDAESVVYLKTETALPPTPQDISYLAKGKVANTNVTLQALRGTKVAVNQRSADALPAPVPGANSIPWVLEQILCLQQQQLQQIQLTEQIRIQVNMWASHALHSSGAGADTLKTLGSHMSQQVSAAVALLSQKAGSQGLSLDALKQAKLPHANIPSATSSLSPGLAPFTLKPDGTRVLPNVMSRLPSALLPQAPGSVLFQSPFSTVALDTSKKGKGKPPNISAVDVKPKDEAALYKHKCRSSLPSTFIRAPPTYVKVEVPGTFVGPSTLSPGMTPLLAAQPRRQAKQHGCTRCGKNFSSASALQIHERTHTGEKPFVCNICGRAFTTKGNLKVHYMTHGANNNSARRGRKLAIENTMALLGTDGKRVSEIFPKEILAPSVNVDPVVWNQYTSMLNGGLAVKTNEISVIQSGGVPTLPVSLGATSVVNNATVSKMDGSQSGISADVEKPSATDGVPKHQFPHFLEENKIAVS
The E-score of `AGTAAGTC` is reported as -0.0619.
For `CGTGTAGC`, the E-score was 0.0164.
`GAATTTCA` has an E-score of 0.181.
`ATGCATCG` gave an E-score of 0.0356.
The E-score of `ACGCGTCC` is reported as -0.206.

Further values, each from its own experiment
`PhoQ, residues 284 288 289 292 302 303 SSTMSV` has a fold induction of 1.1 (PhoP, residues 12 14 15 18 19 TPWLV (Escherichia coli, UniProt P23836); Sort-seq, refers to: YFP reporter; E. coli; PhoQ-PhoP variant library, together with: 10 µM Mg2+; relative to: high Mg2+ state, higher = stronger signaling).
